Measurements from different studies.
Protocols differ between the studies behind these lines. Numbers after ± are the reported error. ≈ marks a conversion by molar mass, not a printed value. Bridges are numbered along the chain shown (N, C = ends). Where no end group is shown, it is not given here. Ends that are not written are not given here.

Substance	test	system	setting	how to read	endpoint	value
CS/C(S)=N/CCCC[S+](C)[O-] (racemic)	RT-PCR, item: Gpx5	rat, colon	oral gavage, 200 mg/kg, 96 h, dosed for four days	baseline: vehicle	mRNA fold change	1.35
CRWYDENAC (disulfide 1-9 (inferred)) (Cy7-labelled, cyclic, disulfide)	NIRF imaging	mouse, orthotopic HCCLM3 tumour	dose not given		time to peak fluorescence	24 h
KCNTATCATQRLANFLVHSSNNFGPILPPTNVGSNTY (Pramlintide; not fully specified (C-terminus, bridges); cysteine pairing not given here; sequence looked up)		peptide, obese or overweight humans	subcutaneous, 360 µg twice daily, week 20, 20 weeks after 4-week lead-in with diet, LS mean	baseline: enrollment	body weight change	-8.4 ± 0.9%
CC1CCC(C(C)C)C(O)C1 (stereo not shown)		Wistar rat	epidermal, 10 g of 0.5% ointment		preferred ambient temperature	~27 °C
CC(C)[C@H](NC(=O)[C@@H]1CSSC[C@H](NC(=O)[C@H](CC(=O)O)NC(=O)[C@@H]2CCCN2C(=O)[C@@H](NC(=O)[C@@H](N)CCC(=O)O)[C@@H](C)O)C(=O)N[C@@H](Cc2ccccc2)C(=O)N[C@@H](Cc2c[nH]c3ccccc23)C(=O)N[C@@H](CCCCN)C(=O)N[C@@H](Cc2ccc(O)cc2)C(=O)N1)C(=O)O		male Wistar rats, anaesthetised	intracavernous, 0.1 nmol per rat		ICP increase AUC	8.75 ± 2.6 mmHg·s
ANKHYF	inhibitor, light transmission aggregometry	peptide, human platelet-rich plasma	500 µg/mL, together with: ADP 4 µM		platelet aggregation	inactive
CCOc1ccc(-c2nc(-c3cccc4c3CCC4NCCO)no2)cc1OCC (stereo not shown)	blood B220+ cell count reduction, flow cytometry	mouse	intraperitoneal, 5 h		ED50	1 mg/kg
CCC1=C[C@@H]2CN(C1)Cc1c([nH]c3ccccc13)[C@@](C(=O)OC)(c1cc3c(cc1OC)N(C)[C@H]1[C@@](O)(C(=O)OC)[C@H](OC(C)=O)[C@]4(CC)C=CCN5CC[C@]31[C@@H]54)C2	tumour volume	mice, MIA PaCa-2 xenograft		baseline: vehicle	minimum effective dose	30 mg/m²
CN1CCN(c2ccc(Nc3ncc4cc(C#N)c(=O)n(C5CCCC5)c4n3)cc2)CC1	MSD immunoassay	mouse with intracerebral U87 tumour, brain tumour	intravenous, 25 mg/kg, 1 h after gefitinib, together with: gefitinib 200 mg/kg oral		p-Erk suppression AUC below baseline	274 %·h
C[C@H]1C[C@H]2CSC(N)=N[C@@]2(c2nc(NC(=O)c3ccc(OC(F)F)cn3)cs2)CO1	item: CSF Aβ1–38	healthy adults	50 mg once daily, 14 days, day 15	baseline: placebo-adjusted baseline	change from baseline	-57.2%
CCCCN(CC)c1nc(C)nc2c1c(C)cn2-c1c(C)cc(C)cc1C	inhibitor, item: CREB phospho-Ser133	hippocampal pyramidal neurons, Sprague-Dawley rat pups	100 nM, 30 min pretreatment, together with: CRF 40 nM for 15 min		CREB phosphorylation	inhibited
CC(=O)Nc1cccc(OCc2nnc(SCc3ccccc3Cl)o2)c1	forced swimming test	mice	40 mg/kg, 0.5 h	baseline: control	immobility duration decrease	53.5%
CC(C)C[C@H](NC(=O)[C@H](CO)NC(=O)[C@H](CCCNC(=N)N)NC(=O)[C@H](CC(=O)O)NC(=O)[C@H](CCC(=O)O)NC(=O)[C@H](C)NC(=O)[C@@H]1CCCN1C(=O)[C@H](C)NC(=O)[C@H](CCC(=O)O)NC(=O)[C@@H]1CCCN1C(=O)[C@@H]1CCCN1)C(N)=O	HPLC-EC	F344 rat, normal, substantia nigra	intranasal, 300 µg, 5 days/week, 3 weeks		dopamine level	815 ± 83 ng/g
NCC(=O)Nc1cncc(-c2nn3c(=O)cc(N4CCNCC4)nc3s2)c1	ADP-induced platelet aggregation, inhibitor, sigmoidal Emax model	human, whole blood	together with: ADP 20 µM		EC50	0.0339 µg/mL (≈ 0.0877 µM)
Polymyxin B		human whole blood	50 ng/mL, 4 h, 37 °C, together with: E. coli LPS 0.5 ng/mL	baseline: LPS without compound	TNF-α release	12.6 ± 5.9%
O=C(NC[C@H]1CN(c2ccc(N3CCOCC3=O)cc2)C(=O)O1)c1ccc(Cl)s1		human, mild renal impairment, plasma	oral, 10 mg, together with: erythromycin at steady state	baseline: same subjects, compound alone	prothrombin time Emax increase	~14%
CC[C@H](C)[C@H](NC(=O)[C@H](C)NC(=O)[C@H](CCCNC(=N)N)NC(=O)[C@H](Cc1c[nH]c2ccccc12)NC(=O)[C@H](CCC(N)=O)NC(=O)[C@@H](N)C(C)C)C(=O)N[C@@H](CCCNC(=N)N)C(=O)N[C@H](C(=O)N[C@@H](CCCNC(=N)N)C(=O)N[C@H](C(=O)N[C@H](C(=O)N[C@@H](CCCNC(=N)N)C(N)=O)[C@@H](C)CC)C(C)C)C(C)C	carboxyfluorescein release	EYPG vesicles	10 µg/mL, 250 s, pH 7.4, 25 °C	baseline: Triton X-100	leakage	32%
neuropeptide Y		Sprague Dawley rat, urethane-anaesthetised	iv, 5 nmol		heart rate response resolution time	18.5 ± 4 min
AGEDPHGYFLPGQFA		peptide, C57BL/6J mouse, zymosan peritonitis	ip, 0.32 ng/kg, 4 h after zymosan, dosed 1 h before zymosan		peritoneal neutrophils	780000 cells
C=C1C2CCC(C2)C1(C)C (stereo not shown)	two-choice feeding trial	Brachylagus idahoensis	1% dry weight in diet, 72 h, together with: monoterpene mixture 1% dry weight		proportion of food consumed	52 ± 0.11%

Substance	test	system	setting	how to read	endpoint	value
CCC1SC(NN=C2c3ccccc3-c3nc4cc(F)ccc4nc32)=NC1=O (stereo not shown)		mouse, STZ-induced diabetes	oral, 25 mg/kg, day 3		blood glucose	313 ± 23.8 mg/dL
Cc1cc(C)c(/C=C2\C(=O)Nc3ccccc32)[nH]1	MRI	human	dose not given, 9.5 months		tumour volume	80 cm³
CO[C@@H]1[C@H](N(C)C(=O)c2ccccc2)C[C@H]2O[C@]1(C)n1c3ccccc3c3c4c(c5c6ccccc6n2c5c31)C(=O)NC4		newly diagnosed FLT3-mutant AML patients	oral, 50 mg twice daily, together with: daunorubicin/cytarabine induction chemotherapy	baseline: CR patients	CR after first induction cycle	75%
Cc1noc(C)c1-c1cnc2c(-c3ccc(C(=O)O)cc3)cn([C@@H](C)c3ccccn3)c2c1		C57BL/6 mouse, Eµ-TCL1 adoptive transfer	oral, 20 mg/kg daily		median overall survival	41 days
CC(=O)Nc1cccc(OCc2nnc(SCc3ccc(C(F)(F)F)cc3)o2)c1	forced swimming test	mice	40 mg/kg, 0.5 h	baseline: control	immobility duration decrease	52.3%
O=C(NC[C@H]1CN(c2ccc(N3CCOCC3=O)cc2)C(=O)O1)c1ccc(Cl)s1	functional antithrombin	human, plasma	dose not given, drug plasma level above 100 ng/mL	baseline: pretreatment samples	antithrombin activity increase	24%
CCOC(=O)c1sc(NN=C2c3ccccc3-c3nc4cc(F)ccc4nc32)nc1C		mouse, STZ-induced diabetes	oral, 25 mg/kg, day 3		blood glucose	322 ± 35.5 mg/dL
CC(=O)Nc1cccc(OCc2nnc(SCc3ccc(F)cc3)o2)c1	forced swimming test	mice	40 mg/kg, 0.5 h	baseline: control	immobility duration decrease	47.5%
CCOC(=O)C=C1SC(NN=C2c3ccccc3-c3nc4cc(F)ccc4nc32)=NC1=O		mouse, STZ-induced diabetes	oral, 25 mg/kg, day 3		blood glucose	410 ± 57.6 mg/dL
Ac-LRKLRKRLLRDWLKAFYDKVAEKLKEAF-NH2 (N-acetyl, C-amide)		peptide, APP/PS1ΔE9 mice, plasma	retro-orbital, 50 µg/mouse 3 times weekly, 6 weeks		plasma total cholesterol	171 ± 13.8 mg/dL
C=CC(=O)N1CCC[C@@H](n2nc(-c3ccc(Oc4ccccc4)cc3)c3c(N)ncnc32)C1		human platelets, collagen, arterial shear flow	70 nM	baseline: vehicle	platelet adhesion	no effect
Cc1c(C(=O)NN2CCCCC2)nn(-c2ccc(Cl)cc2Cl)c1-c1ccc(Cl)cc1		rat, diet-induced obese, plasma	peripheral, 10 mg/kg per day, 6 days		free fatty acid level	0.95 ± 0.14 mmol/L
CC[C@H](C)[C@H](N)C(=O)N[C@@H](CC(C)C)C(=O)N1CCC[C@H]1C(=O)N[C@@H](Cc1c[nH]c2ccccc12)C(=O)N[C@@H](CCCCN)C(=O)N[C@@H](Cc1c[nH]c2ccccc12)C(=O)N1CCC[C@H]1C(=O)N[C@@H](Cc1c[nH]c2ccccc12)C(=O)N[C@@H](Cc1c[nH]c2ccccc12)C(=O)N1CCC[C@H]1C(=O)N[C@@H](Cc1c[nH]c2ccccc12)C(=O)N[C@@H](CCCNC(=N)N)C(=O)N[C@@H](CCCNC(=N)N)C(N)=O	carboxyfluorescein release	EYPG vesicles	10 µg/mL, 250 s, pH 7.4, 25 °C	baseline: Triton X-100	leakage	18%
CCOc1ccc(Cc2cc([C@@H]3O[C@H](SC)[C@@H](O)[C@H](O)[C@H]3O)ccc2Cl)cc1		healthy Chinese subjects	oral, 400 mg once daily, 24 h, day 8		urinary glucose excretion	47.5 g
Cc1ccc(NC(=O)c2ccc(CN3CCN(C)CC3)cc2)cc1Nc1nccc(-c2cccnc2)n1		rat, SU5416/hypoxia PAH model	oral, 15.0 mg/kg once daily, day 49		mPAP	37.4 ± 3.9 mmHg
CC12CCC(CC1)C(C)(C)O2	two-choice feeding trial	Sylvilagus nuttallii	1% dry weight in diet, 72 h, together with: monoterpene mixture 1% dry weight		proportion of food consumed	96 ± 0.03%
CN(C(=O)c1c(Oc2ccc(F)cc2)nc2ncccn12)c1ccc(Cl)cc1		mouse C57BL/6J diet-induced obese	oral, 9 mg/kg once daily, 4 weeks, together with: sitagliptin 1 mg/kg	baseline: vehicle	fasting plasma glucose reduction	6.5%
CCCCCCCCCCCCCCCC(=O)NCCCC[C@H](NC(=O)[C@H](CCC(=O)O)NC(=O)[C@H](CCC(=O)O)NC(=O)[C@H](Cc1ccc(O)cc1)NC(=O)[C@H](CCC(=O)O)NC(=O)CCCCCNC(=S)Nc1ccc2c(c1)C(=O)OC21c2ccc(O)cc2Oc2cc(O)ccc21)C(=O)N[C@@H](Cc1ccc(O)cc1)C(=O)N[C@@H](CCC(=O)O)C(=O)NCC(=O)NCC(=O)NCC(=O)NCC(=O)N[C@@H](CO)C(=O)NCC(=O)NCC(=O)NCC(=O)NCC(=O)N[C@@H](CO)C(=O)N[C@@H](Cc1ccccc1)C(=O)N[C@@H](CC(N)=O)C(=O)N1CCC[C@H]1C(=O)N[C@@H](CCCNC(=N)N)C(=O)N[C@@H](Cc1c[nH]cn1)C(=O)NC(C)(C)C(=O)N[C@@H](CCC(=O)O)C(=O)NCC(=O)N[C@H](C(=O)N[C@@H](Cc1ccccc1)C(=O)N[C@H](C(=O)N[C@@H](CO)C(=O)N[C@@H](CC(=O)O)C(=O)N[C@H](C(=O)N[C@@H](CO)C(=O)N[C@@H](CO)C(=O)N[C@@H](Cc1ccc(O)cc1)C(=O)N[C@@H](CC(C)C)C(=O)N[C@@H](CCC(=O)O)C(=O)NCC(=O)N[C@@H](CCC(N)=O)C(=O)N[C@@H](C)C(=O)N[C@@H](C)C(=O)N[C@@H](CCCCN)C(=O)N[C@@H](CCC(=O)O)C(=O)N[C@@H](Cc1ccccc1)C(=O)N[C@H](C(=O)N[C@@H](C)C(=O)N[C@@H](Cc1c[nH]c2ccccc12)C(=O)N[C@@H](CC(C)C)C(=O)N[C@H](C(=O)N[C@@H](CCCCN)C(=O)NCC(=O)N[C@@H](CCCNC(=N)N)C(=O)NCC(=O)O)C(C)C)[C@@H](C)CC)C(C)C)[C@@H](C)O)[C@@H](C)O		db/db mouse	subcutaneous, 30 nmol/kg, 0.5 h before glucose, AUC 0-120 min, together with: oral glucose 2.0 g/kg	baseline: saline	glucose reduction	36.3%
CCCCCSc1nnc(COc2ccc3c(c2)NC(=O)CC3)o1	forced swimming test	mice	40 mg/kg, 0.5 h	baseline: control	immobility duration decrease	32.5%
COc1ccc2c(c1)c(CC(=O)O)c(C)n2C(=O)c1ccc(Cl)cc1	multiplex bead immunoassay, item: IL-10	CD-1 mice, serum	ip, 20 mg/kg, three-injection regimen, together with: LPS 3 mg/kg		cytokine level	48.3 ± 13.3 pg/mL

A few entries again:
Substance	test	system	setting	how to read	endpoint	value
CO[C@@H]1[C@H](N(C)C(=O)c2ccccc2)C[C@H]2O[C@]1(C)n1c3ccccc3c3c4c(c5c6ccccc6n2c5c31)C(=O)NC4		newly diagnosed FLT3-mutant AML patients	oral, 50 mg twice daily, together with: daunorubicin/cytarabine induction chemotherapy	baseline: CR patients	CR after first induction cycle	75%
Cc1noc(C)c1-c1cnc2c(-c3ccc(C(=O)O)cc3)cn([C@@H](C)c3ccccn3)c2c1		C57BL/6 mouse, Eµ-TCL1 adoptive transfer	oral, 20 mg/kg daily		median overall survival	41 days
CC(=O)Nc1cccc(OCc2nnc(SCc3ccc(C(F)(F)F)cc3)o2)c1	forced swimming test	mice	40 mg/kg, 0.5 h	baseline: control	immobility duration decrease	52.3%
